Measured values gathered from unrelated publications.
A part holds a random share of what one study measured. Substitutions count along the parent as printed.

Block 1 — target: CCNB3, cyclin fold, Cln2 fusion (human); technique: yeast growth competition, sequencing; medium: yeast; notes: weak parent motif; baseline: not given; direction: higher = stronger binding; measurement: normalised enrichment score
Parent: WEE1 docking peptide (human); CTLRQKLIFSPCS; partner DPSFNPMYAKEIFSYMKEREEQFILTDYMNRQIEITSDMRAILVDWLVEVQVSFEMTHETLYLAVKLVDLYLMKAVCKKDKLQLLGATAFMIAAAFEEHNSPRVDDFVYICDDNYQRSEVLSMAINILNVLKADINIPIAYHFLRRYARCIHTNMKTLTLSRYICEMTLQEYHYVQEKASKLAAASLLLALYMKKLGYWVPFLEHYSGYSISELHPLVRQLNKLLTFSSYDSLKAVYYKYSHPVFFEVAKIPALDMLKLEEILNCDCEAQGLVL
Change = P11A; result = 0.275
Change = R4A; result = 0.0149
Change = C12A; result = 0.251
Change = I8A; result = 0.556
Change = L7A; result = 0.228
Change = K6A; result = 0.405

Block 2 — target: UBE2B UBC core domain (UniProt P63146); technique: yeast two-hybrid; medium: yeast; notes: mostly zero background; baseline: not given; direction: higher = stronger interaction; measurement: lacZ reporter activity
Sequence of UniProt P63146 (whole entry, looked up): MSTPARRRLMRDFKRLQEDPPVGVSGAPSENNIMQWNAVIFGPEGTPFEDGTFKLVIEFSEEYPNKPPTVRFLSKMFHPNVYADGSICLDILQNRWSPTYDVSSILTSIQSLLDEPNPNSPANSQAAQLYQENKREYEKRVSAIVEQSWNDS
B1: TRIM10 RING domain (UniProt Q9UDY6); chain SVTSLADEVNCPICQGTLREPVTIDCGHNFCRACLTRYCEIPGPDLEESPTCPLCKEPFRPGSFRP
B2: NSMCE1 RING domain (UniProt Q8WV22); chain RETYPDAVKICNICHSLLIQGQSCETCGIRMHLPCVAKYFQSNAEPRCPHCNDYWPHEIPKV
B3: RNF14 RING domain (UniProt Q9UBS8); chain IKCFNSKLFLCSICFCEKLGSECMYFLECRHVYCKACLKDYFEIQIRDGQVQCLNCPEPKCPSVATPGQVK
B4: RFPL2 RING domain (UniProt O75678); chain MAALFQEASSCPVCSDYLEKPMSLECGCAVCLKCINSLQKEPHGEDLLCCCSSMVSRKNKIRR
B5: RNF175 RING domain (UniProt Q8N4F7); chain LPTRSLSDNICAVCGQKIIVELDEEGLIENTYQLSCNHVFHEFCIRGWCIVGKKQTCPYCKEKVDLKRMIS
Molecule = B1 (TRIM10 RING domain); result = 0
Molecule = B2 (NSMCE1 RING domain); result = 0
Molecule = B3 (RNF14 RING domain); result = 0
Molecule = FLKKLEQSFMCVCCQELVYQPVTTECFHNVCKDCLQRSFKAQVFSCPACRHDLGQNYIMI (UHRF2 RING domain (UniProt Q96PU4)); result = 0
Molecule = B4 (RFPL2 RING domain); result = 0
Molecule = LKQVSIRENCCSLCCDEVADTQLKPCGHSDLCMDCALQLETCPLCRKEIVSRIRQI (RSPRY1 RING domain (UniProt Q96DX4)); result = 0
Molecule = B5 (RNF175 RING domain); result = 0

Block 3 — technique: universal PBM; form: double-stranded DNA, one strand shown; medium: in vitro; tested at: not given; direction: higher = stronger binding; measurement: E-score
Target: Sal-like protein 4, full length isoform B (SALL4, Homo sapiens, UniProt Q9UJQ4-2, residues 1-616)
Notes: 8-mer, flanks averaged, mean of replicates
Target sequence (chain): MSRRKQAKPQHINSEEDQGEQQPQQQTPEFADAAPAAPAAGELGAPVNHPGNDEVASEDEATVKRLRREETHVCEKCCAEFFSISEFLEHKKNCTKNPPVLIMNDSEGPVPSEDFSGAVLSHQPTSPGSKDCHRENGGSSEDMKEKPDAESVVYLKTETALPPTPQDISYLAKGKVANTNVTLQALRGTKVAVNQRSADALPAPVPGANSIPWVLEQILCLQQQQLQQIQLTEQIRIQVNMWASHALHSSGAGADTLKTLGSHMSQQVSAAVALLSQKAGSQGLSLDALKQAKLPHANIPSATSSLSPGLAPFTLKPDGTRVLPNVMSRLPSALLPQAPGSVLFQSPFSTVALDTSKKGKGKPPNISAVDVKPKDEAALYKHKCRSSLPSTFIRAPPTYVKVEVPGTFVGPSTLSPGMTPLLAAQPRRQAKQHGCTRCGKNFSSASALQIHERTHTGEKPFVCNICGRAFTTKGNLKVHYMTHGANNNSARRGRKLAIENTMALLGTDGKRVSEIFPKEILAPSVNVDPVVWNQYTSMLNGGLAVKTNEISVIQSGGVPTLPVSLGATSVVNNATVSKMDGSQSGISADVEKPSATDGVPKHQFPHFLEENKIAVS
Strand = GAGGGCAC; result = -0.191
Strand = TCAAGGGA; result = -0.0879
Strand = GTGCTTGA; result = -0.0244
Strand = GCCGGAAC; result = -0.219
Strand = AGTGATAG; result = 0.0657
Strand = AATGAGTA; result = 0.278
Strand = CTGATGAC; result = -0.131
Strand = CCGTACGG; result = -0.137
Strand = AGTGTACC; result = -0.0533
Strand = GGCGGCGA; result = -0.348
Strand = CATATTCC; result = 0.276
Strand = GATTCTAA; result = 0.143
Strand = CTGGAATC; result = -0.103
Strand = ATGGGAAT; result = 0.0704
Strand = AAAACCGT; result = 0.041
Strand = ACACGGAC; result = -0.0155
Strand = GTACAATA; result = 0.378
Strand = CCCCGTAG; result = -0.313

Block 4 — technique: competition protein-binding microarray; form: double-stranded DNA, one strand shown; medium: in vitro; tested at: 2 µM; together with: Cbf1 competitor, 0.05 µM; direction: higher = stronger binding; measurement: fluorescence intensity; constant ends, left off below: … GTCTTGATTCGCTTGACGCTGCTG
Target: Phosphate system positive regulatory protein PHO4, full length, GST-tagged (PHO4, Saccharomyces cerevisiae, UniProt P07270, residues 1-312)
Notes: whole 60-bp probe, lowest competitor level
Construct (chain): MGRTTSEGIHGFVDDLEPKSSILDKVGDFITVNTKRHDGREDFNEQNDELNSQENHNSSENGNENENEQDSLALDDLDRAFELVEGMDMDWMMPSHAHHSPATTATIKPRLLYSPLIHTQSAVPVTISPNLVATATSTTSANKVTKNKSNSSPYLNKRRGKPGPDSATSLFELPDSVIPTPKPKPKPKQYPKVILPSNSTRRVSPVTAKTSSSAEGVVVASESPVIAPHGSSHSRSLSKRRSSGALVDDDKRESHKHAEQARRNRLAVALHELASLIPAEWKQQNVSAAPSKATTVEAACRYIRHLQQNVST
Strand = GTCTTGTCTCATTGCGTTGTGGGTGTCCCCACTTCA; result = 5350 a.u.
Strand = ACCTTGGCGCATTATCATGTTTGTGATGTCATCCAG; result = 4840 a.u.
Strand = ATCACCCCGGTCCCGCACGTGTTCCTGTGCTCCCCT; result = 20700 a.u.
Strand = CTTCTGTAAATTTGGACCGTGGGTGGACGCGCCCCG; result = 7450 a.u.
Strand = CAACACTGGCGGGTCCACGTGTTGGCTAGCCTCACC; result = 14600 a.u.
Strand = TTCAATGCCAACAATAGCGTGCTTTCTTGTGAGTTT; result = 7750 a.u.
Strand = CTTTCCCGATCTTGGCAGGTGGGTGTAGCACATTTG; result = 8070 a.u.
Strand = TGATGATATAAGGTCCACGTGATGGCATTTCAATCT; result = 15700 a.u.
Strand = CTTTTAGTAAACCGTCACGTGCAAAAGATTCTTTAG; result = 16600 a.u.
Strand = GGTGTTGGAACTACCCACGTGGTGATTCTGGTATTT; result = 19700 a.u.
Strand = TGGTGGTAATTTTGGAACGTGCAAAACCTCTGGTAT; result = 11800 a.u.
Strand = TACGAACAATATCCACACGTGGCCGTTGTAAAGCTT; result = 18200 a.u.
Strand = AAAAAAGGGGGCAGCAACGTGCTTTACATACAAACC; result = 14300 a.u.
Strand = CTTCTGTAAATTTGGTGAGTGGGTGGACGCGCCCCG; result = 4370 a.u.
Strand = GCAAAGAAATAGGATCGCGTGGAACTGGATCGTACA; result = 5840 a.u.
Strand = GAAAGCGTTCAGTCCCACGTTGAAAAAAATATATAA; result = 10800 a.u.
Strand = CTGAAAGAGAAATTGTCCGTGACGAAAAGGAAAAAG; result = 3850 a.u.
Strand = CTAACGAAGGTTTGAATGGTGGGTGACAAGCCAAGT; result = 3450 a.u.
Strand = GAAACTCATAGAGATGACGTGCCAGTTGGTTACGCC; result = 5520 a.u.

Block 5 — technique: protein-binding microarray; form: double-stranded DNA, one strand shown; medium: in vitro; tested at: 250 nM; notes: 60-bp whole probe; together with: salmon DNA 0.4 mg/ml; baseline: random background probes; direction: higher = stronger binding; measurement: log fluorescence; constant ends, left off below: GCCTAGCAC … GTCTTGATTCGCTTGACGCTGCTG
Target: Interferon regulatory factor 7, full length, phosphomimetic (IRF7, Homo sapiens, UniProt Q92985, residues 1-503, S101K/S471D/S472D/S475D/S476D/S477D/S483D/S484D/S487D)
Construct (chain): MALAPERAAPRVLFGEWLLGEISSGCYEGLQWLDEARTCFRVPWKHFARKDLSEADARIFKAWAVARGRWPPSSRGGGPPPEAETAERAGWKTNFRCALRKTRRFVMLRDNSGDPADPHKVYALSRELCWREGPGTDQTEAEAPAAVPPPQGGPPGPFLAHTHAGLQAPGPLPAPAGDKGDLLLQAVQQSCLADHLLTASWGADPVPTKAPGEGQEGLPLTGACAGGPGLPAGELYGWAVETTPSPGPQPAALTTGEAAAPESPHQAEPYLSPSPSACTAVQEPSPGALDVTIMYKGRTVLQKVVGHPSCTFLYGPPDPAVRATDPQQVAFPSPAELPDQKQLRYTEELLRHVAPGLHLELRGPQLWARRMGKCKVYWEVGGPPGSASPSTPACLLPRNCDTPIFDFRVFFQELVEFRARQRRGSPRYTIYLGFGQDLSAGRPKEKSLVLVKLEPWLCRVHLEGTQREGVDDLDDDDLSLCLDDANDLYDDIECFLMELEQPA
Strand = TCTCTCCCTTTATCTCTTTTGTGCTAG; result = 1.09 z-score
Strand = TTAGGACGGGGGTTTCGGTTAGTGCTA; result = 7.72 z-score
Strand = TCAGGACTGGGGTATCGGTTAGTGCTA; result = -0.0609 z-score
Strand = TTAGAACTGAGACTTGATTAGTGCTAG; result = -0.251 z-score
Strand = TTCGGACTGGGACTGGGTTAGTGCTAG; result = -0.242 z-score
Strand = TTAGGCCTCGGACTGGGTTAGTGCTAG; result = 0.187 z-score
Strand = GACGGTATCCCTTTCCTGACGTGCTAG; result = 0.723 z-score
Strand = TTTGGACTGGGTATCGGTTAGTGCTAG; result = 0.175 z-score
Strand = TCATGTCTGTGTCACAGACTGTGCTAG; result = 0.0761 z-score
Strand = GAGGATTTCAGTATCGAGACGTGCTAG; result = -0.226 z-score
Strand = GACGGTCTCGGACTGGAGACGTGCTAG; result = -0.00502 z-score
Strand = TTAGGTATCCTGATCCTTTAGTGCTAG; result = -0.308 z-score
Strand = GACGGTTCCGGTTTCGGTACGTGCTAG; result = 8.3 z-score
Strand = CCTTTTATGGTATTTTTTTCGTGCTAG; result = 1.78 z-score
Strand = CTAGATTTCGGGACTGGATTAGTGCTA; result = 0.749 z-score
Strand = GACGGTTTCGGGTTGCGGGACGTGCTA; result = 12.9 z-score
Strand = TTAGAACTGAGTTTCGATGAGTGCTAG; result = 1.59 z-score
Strand = GCCTTTTATTTGAAAGAAATGTGCTAG; result = 1.17 z-score
Strand = TTAGGACTGGGGTTTCGATTAGTGCTA; result = 5.5 z-score

A few entries again (block 5):
Strand = TTAGAACTGAGACTTGATTAGTGCTAG; result = -0.251 z-score
Strand = TTCGGACTGGGACTGGGTTAGTGCTAG; result = -0.242 z-score
Strand = TTAGGCCTCGGACTGGGTTAGTGCTAG; result = 0.187 z-score
Strand = GACGGTATCCCTTTCCTGACGTGCTAG; result = 0.723 z-score
Strand = TTTGGACTGGGTATCGGTTAGTGCTAG; result = 0.175 z-score
Strand = TCATGTCTGTGTCACAGACTGTGCTAG; result = 0.0761 z-score
Strand = GAGGATTTCAGTATCGAGACGTGCTAG; result = -0.226 z-score
Strand = GACGGTCTCGGACTGGAGACGTGCTAG; result = -0.00502 z-score
Strand = TTAGGTATCCTGATCCTTTAGTGCTAG; result = -0.308 z-score
